Experimental data gathered from unrelated publications.
Every numbered part comes from another study and shows a few of its results, in no order. Values joined by “and” are separate records of one study, mostly repeats; a detail may differ.
UniProt P42336, sequence (whole entry, unmodified, looked up): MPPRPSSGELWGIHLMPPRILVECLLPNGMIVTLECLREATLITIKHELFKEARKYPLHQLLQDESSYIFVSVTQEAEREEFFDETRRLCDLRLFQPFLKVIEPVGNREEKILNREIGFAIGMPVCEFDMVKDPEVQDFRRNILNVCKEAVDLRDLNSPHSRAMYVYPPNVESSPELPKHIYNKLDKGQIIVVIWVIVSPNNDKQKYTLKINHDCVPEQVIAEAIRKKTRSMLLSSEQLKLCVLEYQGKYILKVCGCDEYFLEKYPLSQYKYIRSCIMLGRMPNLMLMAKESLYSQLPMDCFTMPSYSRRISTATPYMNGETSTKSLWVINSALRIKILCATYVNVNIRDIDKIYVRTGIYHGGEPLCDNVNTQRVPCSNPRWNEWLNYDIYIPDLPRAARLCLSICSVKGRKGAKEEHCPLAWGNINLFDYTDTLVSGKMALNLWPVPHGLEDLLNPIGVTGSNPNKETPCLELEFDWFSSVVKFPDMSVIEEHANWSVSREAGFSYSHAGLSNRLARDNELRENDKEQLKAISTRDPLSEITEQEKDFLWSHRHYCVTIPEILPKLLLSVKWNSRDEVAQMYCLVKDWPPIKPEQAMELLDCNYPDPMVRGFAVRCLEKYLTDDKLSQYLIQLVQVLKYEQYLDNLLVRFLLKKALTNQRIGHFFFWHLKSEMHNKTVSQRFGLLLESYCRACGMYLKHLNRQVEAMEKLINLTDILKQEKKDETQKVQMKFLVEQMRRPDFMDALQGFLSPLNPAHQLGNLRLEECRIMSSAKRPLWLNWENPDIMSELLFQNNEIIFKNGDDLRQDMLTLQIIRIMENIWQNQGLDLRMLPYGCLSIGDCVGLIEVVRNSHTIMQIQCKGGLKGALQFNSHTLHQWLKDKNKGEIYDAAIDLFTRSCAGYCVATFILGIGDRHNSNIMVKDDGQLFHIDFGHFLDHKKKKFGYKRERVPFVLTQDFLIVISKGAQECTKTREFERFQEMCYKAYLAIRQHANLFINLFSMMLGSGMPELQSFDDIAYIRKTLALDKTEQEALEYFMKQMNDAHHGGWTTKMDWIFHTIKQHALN
UniProt Q9H2G2, sequence (whole entry, looked up): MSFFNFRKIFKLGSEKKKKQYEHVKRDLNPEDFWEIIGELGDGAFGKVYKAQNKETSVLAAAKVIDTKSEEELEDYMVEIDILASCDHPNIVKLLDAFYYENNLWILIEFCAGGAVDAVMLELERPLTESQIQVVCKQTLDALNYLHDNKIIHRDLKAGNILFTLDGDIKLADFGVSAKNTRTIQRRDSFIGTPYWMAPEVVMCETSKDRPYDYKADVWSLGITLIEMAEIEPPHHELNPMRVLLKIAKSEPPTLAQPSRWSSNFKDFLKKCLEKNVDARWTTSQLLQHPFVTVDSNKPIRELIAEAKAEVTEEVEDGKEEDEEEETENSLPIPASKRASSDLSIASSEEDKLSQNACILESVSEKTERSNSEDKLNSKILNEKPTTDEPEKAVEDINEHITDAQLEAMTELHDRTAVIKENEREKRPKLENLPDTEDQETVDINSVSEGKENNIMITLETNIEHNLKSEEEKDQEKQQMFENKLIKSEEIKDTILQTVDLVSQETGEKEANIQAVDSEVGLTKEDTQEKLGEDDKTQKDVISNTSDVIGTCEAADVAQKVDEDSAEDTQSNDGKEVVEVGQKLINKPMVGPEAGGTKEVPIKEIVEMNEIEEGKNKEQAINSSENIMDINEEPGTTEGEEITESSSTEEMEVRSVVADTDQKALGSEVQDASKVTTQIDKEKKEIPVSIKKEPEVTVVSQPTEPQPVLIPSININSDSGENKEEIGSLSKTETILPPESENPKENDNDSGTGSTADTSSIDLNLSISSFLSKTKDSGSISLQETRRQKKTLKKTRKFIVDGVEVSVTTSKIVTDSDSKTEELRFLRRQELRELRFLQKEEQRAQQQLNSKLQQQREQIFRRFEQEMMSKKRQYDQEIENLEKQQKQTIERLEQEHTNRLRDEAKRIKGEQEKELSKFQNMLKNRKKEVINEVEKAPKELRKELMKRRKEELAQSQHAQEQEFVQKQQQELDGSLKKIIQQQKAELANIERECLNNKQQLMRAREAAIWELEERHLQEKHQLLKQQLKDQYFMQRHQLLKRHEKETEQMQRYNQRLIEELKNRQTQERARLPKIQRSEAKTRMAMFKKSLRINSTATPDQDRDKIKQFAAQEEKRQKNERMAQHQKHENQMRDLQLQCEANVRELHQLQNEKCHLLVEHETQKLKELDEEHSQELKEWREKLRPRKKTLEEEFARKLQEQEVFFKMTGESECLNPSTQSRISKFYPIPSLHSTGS
UniProt Q12851, sequence (whole entry, looked up): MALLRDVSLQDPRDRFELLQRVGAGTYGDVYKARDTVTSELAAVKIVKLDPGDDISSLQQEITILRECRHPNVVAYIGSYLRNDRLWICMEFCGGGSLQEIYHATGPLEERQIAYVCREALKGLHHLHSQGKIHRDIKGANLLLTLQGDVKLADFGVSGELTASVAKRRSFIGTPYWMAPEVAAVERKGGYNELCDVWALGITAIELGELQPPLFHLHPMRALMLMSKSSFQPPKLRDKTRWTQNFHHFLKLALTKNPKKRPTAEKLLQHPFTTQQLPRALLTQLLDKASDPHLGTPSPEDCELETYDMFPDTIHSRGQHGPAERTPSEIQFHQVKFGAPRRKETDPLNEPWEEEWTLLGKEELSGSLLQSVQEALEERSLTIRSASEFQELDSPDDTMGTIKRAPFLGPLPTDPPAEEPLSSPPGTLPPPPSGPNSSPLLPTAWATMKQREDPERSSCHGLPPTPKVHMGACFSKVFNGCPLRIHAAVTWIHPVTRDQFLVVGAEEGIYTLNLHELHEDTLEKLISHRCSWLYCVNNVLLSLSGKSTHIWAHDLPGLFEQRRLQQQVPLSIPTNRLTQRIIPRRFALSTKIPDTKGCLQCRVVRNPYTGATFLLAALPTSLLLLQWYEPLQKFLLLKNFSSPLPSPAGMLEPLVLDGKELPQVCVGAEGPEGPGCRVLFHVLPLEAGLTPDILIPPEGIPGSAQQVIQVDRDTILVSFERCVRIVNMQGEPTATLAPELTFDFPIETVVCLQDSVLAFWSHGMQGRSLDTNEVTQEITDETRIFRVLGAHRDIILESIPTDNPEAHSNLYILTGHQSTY
UniProt Q9HBY8, sequence (whole entry, looked up): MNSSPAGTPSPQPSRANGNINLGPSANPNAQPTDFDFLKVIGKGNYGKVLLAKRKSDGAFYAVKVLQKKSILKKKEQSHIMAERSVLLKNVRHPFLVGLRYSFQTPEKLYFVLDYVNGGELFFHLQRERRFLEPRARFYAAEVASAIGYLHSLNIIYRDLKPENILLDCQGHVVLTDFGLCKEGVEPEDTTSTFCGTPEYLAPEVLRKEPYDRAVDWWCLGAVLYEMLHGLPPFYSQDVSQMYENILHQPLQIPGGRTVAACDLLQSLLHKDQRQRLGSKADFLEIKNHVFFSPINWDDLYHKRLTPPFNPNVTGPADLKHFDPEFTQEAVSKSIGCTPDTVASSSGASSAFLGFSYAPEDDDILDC

Series 1 — method: KINOMEscan; concentration: 10 µM; baseline: DMSO control; reading: lower = stronger binding; endpoint: binding
Compound: COc1cc(C(=O)N2CCC(N3CCN(C)CC3)CC2)ccc1Nc1ncc2c(n1)N(C)c1ccccc1C(=O)N2C
MKNK1: 50%
ERBB4: 100%
MARK1: 87%
TNNI3K: 100%
MAP3K1: 95%
CDKL2: 100%
TAK1: 98%
HUNK: 100%
ROCK2: 87%
TBK1: 97%
BRSK2: 64%
TSSK1B: 60%
EPHB2: 100%
CHEK1: 100%
IRAK3: 100%
MST2: 71%
HIPK3: 89%

Series 2 — effect on: cell-free assay; method: competition with immobilised ligand; concentration: 1 µM; endpoint: remaining binding
Compound: COc1ccc2c(c1)O[C@@H](c1ccc(OC)c(OC)c1)C[C@H]2NC(=O)C1(c2ccc3c(c2)OC(F)(F)O3)CC1
Serine/threonine-protein kinase TAO1 (TAOK1, Homo sapiens, UniProt Q7L7X3): 93%
Death-associated protein kinase 3 (DAPK3, Homo sapiens, UniProt O43293): 93%
Phosphatidylinositol 4,5-bisphosphate 3-kinase catalytic subunit alpha isoform (PIK3CA, Homo sapiens, UniProt P42336, H1047L): 77%
Phosphatidylinositol 4,5-bisphosphate 3-kinase catalytic subunit alpha isoform (PIK3CA, Homo sapiens, UniProt P42336, M1043I): 91%
Serine/threonine-protein kinase NIM1 (NIM1K, Homo sapiens, UniProt Q8IY84): 94%
Mitogen-activated protein kinase kinase kinase kinase 2 (MAP4K2, Homo sapiens, UniProt Q12851): 87%
Phosphatidylinositol 4,5-bisphosphate 3-kinase catalytic subunit alpha isoform (PIK3CA, Homo sapiens, UniProt P42336, I800L): 79%
Serine/threonine-protein kinase Sgk2 (SGK2, Homo sapiens, UniProt Q9HBY8): 94%
Protein-tyrosine kinase 2-beta (PTK2B, Homo sapiens, UniProt Q14289): 100%
STE20/SPS1-related proline-alanine-rich protein kinase (STK39, Homo sapiens, UniProt Q9UEW8): 71%
Mast/stem cell growth factor receptor Kit (KIT, Homo sapiens, UniProt P10721, V559D): 86%
Proto-oncogene tyrosine-protein kinase receptor Ret (RET, Homo sapiens, UniProt P07949, V804M): 95%
Phosphatidylinositol 3-kinase C2 domain-containing subunit gamma (PIK3C2G, Homo sapiens, UniProt O75747): 83%
Interleukin-1 receptor-associated kinase 1 (IRAK1, Homo sapiens, UniProt P51617): 80%
STE20-like serine/threonine-protein kinase (SLK, Homo sapiens, UniProt Q9H2G2): 100%

Series 3 — effect on: enzyme activity; mode: inhibitor; concentration: 0.5 µM; baseline: control; endpoint: remaining activity
Target: Platelet-derived growth factor receptor alpha (PDGFRA, Homo sapiens, UniProt P16234)
UniProt P16234, sequence (whole entry, looked up): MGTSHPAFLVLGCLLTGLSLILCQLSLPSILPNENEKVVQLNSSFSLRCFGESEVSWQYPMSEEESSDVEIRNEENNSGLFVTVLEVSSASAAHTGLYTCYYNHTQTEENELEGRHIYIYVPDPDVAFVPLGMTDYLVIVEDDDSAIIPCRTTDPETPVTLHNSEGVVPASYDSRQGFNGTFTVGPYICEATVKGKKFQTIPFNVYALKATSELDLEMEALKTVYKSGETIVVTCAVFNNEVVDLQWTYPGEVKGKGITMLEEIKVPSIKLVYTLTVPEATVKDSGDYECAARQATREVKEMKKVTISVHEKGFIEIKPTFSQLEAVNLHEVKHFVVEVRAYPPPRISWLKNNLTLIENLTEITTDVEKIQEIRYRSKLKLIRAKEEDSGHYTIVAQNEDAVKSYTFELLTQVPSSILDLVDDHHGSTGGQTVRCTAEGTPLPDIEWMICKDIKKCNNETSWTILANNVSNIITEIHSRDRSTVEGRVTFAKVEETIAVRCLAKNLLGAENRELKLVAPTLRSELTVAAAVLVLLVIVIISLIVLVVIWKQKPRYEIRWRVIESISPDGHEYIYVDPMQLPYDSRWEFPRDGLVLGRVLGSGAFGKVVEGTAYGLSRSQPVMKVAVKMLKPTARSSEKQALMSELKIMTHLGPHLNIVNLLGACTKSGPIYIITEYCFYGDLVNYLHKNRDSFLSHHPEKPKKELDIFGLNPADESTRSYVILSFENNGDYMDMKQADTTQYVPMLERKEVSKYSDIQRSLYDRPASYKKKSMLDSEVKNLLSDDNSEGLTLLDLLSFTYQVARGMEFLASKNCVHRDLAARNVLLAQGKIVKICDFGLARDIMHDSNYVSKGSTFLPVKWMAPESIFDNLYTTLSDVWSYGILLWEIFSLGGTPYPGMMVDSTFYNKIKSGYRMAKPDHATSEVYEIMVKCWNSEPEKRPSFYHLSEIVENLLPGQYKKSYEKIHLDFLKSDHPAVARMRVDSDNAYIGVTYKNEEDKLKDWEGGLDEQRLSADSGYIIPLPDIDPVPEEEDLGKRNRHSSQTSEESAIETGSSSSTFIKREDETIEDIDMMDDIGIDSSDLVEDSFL
O=c1cc(N2CCOCC2)oc2c1ccc1ccccc12: 83.9%
CN(C)CCCn1cc(C2=C(c3c[nH]c4ccccc34)C(=O)NC2=O)c2ccccc21: 69.2%
COc1ccc(-c2cnc3c(-c4ccsc4)cnn3c2)cc1: 74.8%
CCOc1cc2ncnc(Nc3cccc(Br)c3)c2cc1OCC: 84.7%
CC(=O)O/N=C1/C(c2c(O)[nH]c3cc(Br)ccc23)=Nc2ccccc21: 82.9%
Cn1cc(/C=C2\C(=O)Nc3ccc(S(N)(=O)=O)cc32)c2ccccc21: 81%
CC(C)c1nn(-c2c(Cl)cccc2Cl)c2nc(Cc3ccc(OCCO)cc3)[nH]c(=O)c12: 91.6%
COc1cc2ncnc(N3CCN(C(=O)Nc4ccc(Oc5ccccc5)cc4)CC3)c2cc1OC: 16.4%
COc1ccc(Cl)cc1NC(=O)Nc1cc(C)nc2ccccc12: 88.5%
CCN1/C(=C/C(C)=O)Sc2ccc(OC)cc21: 105%
CCC(=O)Nc1ccc2ncnc(Nc3cccc(Br)c3)c2c1: 107%
Cc1nc(Nc2ncc(C(=O)Nc3c(C)cccc3Cl)s2)cc(N2CCN(CCO)CC2)n1: 1.82%
O=C(Nc1ccc(Cl)cc1)c1ccccc1NCc1ccncc1: 81.3%
Cn1cnc2cc3c(Nc4cccc(Br)c4)ncnc3cc21: 107%
O=C1NC(=O)/C(=C/c2ccc3nccnc3c2)S1: 106%
CC(C)[C@H](CO)Nc1nc(Nc2cccc(Cl)c2)c2ncn(C(C)C)c2n1: 96.9%
Nc1[nH]nc2nnc(-c3c(-c4ccccc4)nn4ccccc34)cc12: 99.7%
COc1cc2ncnc(Nc3ccc(OCc4ccccc4)cc3)c2cc1OC: 91.3%
COc1cc2ncc(-c3ccccc3)nc2cc1OC: 83.1%
C[S+]([O-])c1ccc(-c2nc(-c3ccncc3)c(-c3ccc(F)cc3)[nH]2)cc1 (stereo not shown): 98.8%

Series 4 — effect on: RNA clamping; method: fluorescence polarization; concentration: concentration not given; setting: mean of two replicates; with: FAM-labelled poly r(AG)8 RNA; endpoint: fluorescence polarization change
Target: Eukaryotic initiation factor 4A-III (Homo sapiens, UniProt P38919)
UniProt P38919, sequence (whole entry, looked up): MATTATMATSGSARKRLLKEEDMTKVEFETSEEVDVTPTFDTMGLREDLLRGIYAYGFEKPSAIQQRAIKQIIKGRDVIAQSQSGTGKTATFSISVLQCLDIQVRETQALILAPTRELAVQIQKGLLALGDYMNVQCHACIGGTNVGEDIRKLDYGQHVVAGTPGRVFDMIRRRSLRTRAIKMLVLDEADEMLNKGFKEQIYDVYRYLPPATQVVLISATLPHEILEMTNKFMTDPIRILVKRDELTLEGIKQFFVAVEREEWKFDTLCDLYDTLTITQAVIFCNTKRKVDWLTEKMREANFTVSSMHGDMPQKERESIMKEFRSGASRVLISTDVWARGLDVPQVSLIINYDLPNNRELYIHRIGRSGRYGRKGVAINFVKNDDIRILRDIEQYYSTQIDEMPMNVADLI
C#CCNC(=O)/C=C/Cn1c(-c2ccccc2)nc2c(c1=O)[C@@H](c1ccccc1)[C@]1(c3ccc(OC)cc3)Oc3cc(OC)cc(OC)c3[C@]21O: 6.2 mP
COC(=O)[C@@H]1[C@@H](c2ccccc2)[C@]2(c3ccc(OC)cc3)Oc3cc(OC)cc(OC)c3[C@@]23OC(c2ccccc2Cl)=N[C@@]13O: 1.6 mP
COc1ccc([C@@]23Oc4cc(OC)cc(OC)c4[C@]2(O)c2nc(C4CCCCC4)[nH]c(=O)c2[C@H]3c2ccccc2)cc1: 30.4 mP
COC(=O)[C@@H]1[C@@H](c2ccccc2)[C@]2(c3ccc(OC)cc3)Oc3cc(OC)cc(OC)c3[C@@]23NC(C(F)(F)F)=N[C@@]13O: 13.2 mP
COC(=O)[C@@H]1[C@@H](c2ccccc2)[C@]2(c3ccc(OC)cc3)Oc3cc(OC)cc(OC)c3[C@@]23NC(c2ccc(Br)cc2)=N[C@@]13O: 4.8 mP
COc1ccc([C@@]23Oc4cc(OC)cc(OC)c4[C@]2(O)[C@H](O)[C@H](CN(C)C)[C@H]3c2ccccc2)cc1: 45.3 mP
COc1cc(OC)c2c(c1)O[C@@]1(c3ccc(OC)c(O)c3)[C@H](c3ccccc3)[C@@H](C(=O)N(C)OC)[C@@H](O)[C@@]21O: 27.3 mP
COC(=O)[C@H]1[C@@H](O)[C@@]2(O)c3c(F)cccc3N(C)[C@@]2(c2ccc(OC)cc2)[C@@H]1c1ccccc1: 5.6 mP
COC(=O)[C@@H]1[C@@H](c2ccccc2)[C@]2(c3ccc(OC)cc3)Oc3cc(OC)cc(OC)c3[C@@]23NC(Cc2ccccc2)=N[C@@]13O: 15.1 mP and 27.2 mP
COC(=O)/C=C/Cn1c(-c2ccccc2)nc2c(c1=O)[C@@H](c1ccccc1)[C@]1(c3ccc(OC)cc3)Oc3cc(OC)cc(OC)c3[C@]21O: 4.3 mP
COC(=O)[C@@H]1[C@@H](c2ccccc2)[C@]2(c3ccc(OC)cc3)Oc3cc(OC)cc(OC)c3[C@@]23NC(c2ccc(OC)cc2)=N[C@@]13O: 8.4 mP
COc1ccc([C@@]23Oc4cc(OC)cc(OC)c4[C@]2(O)c2[nH]nc(O)c2[C@H]3c2ccccc2)cc1: 30.8 mP
COCCN[C@@]12/C(=N/O)C[C@@H](c3ccccc3)[C@]1(c1ccc(OC)cc1)Oc1cc(OC)cc(OC)c12: 4.1 mP
COc1ccc([C@@]23Oc4cc(OC)cc(OC)c4[C@]2(O)[C@H](O)[C@H](C(=O)c2ccco2)[C@H]3c2ccc(Br)cc2)cc1: 2.5 mP
COC(=O)[C@@H]1[C@@H](c2ccccc2)[C@]2(c3ccc(OC)cc3)Oc3cc(OC)cc(OC)c3[C@@]23NC(c2ccc(C(F)(F)F)cc2)=N[C@@]13O: 4 mP

For quick reference, copied from above (series 3):
CN(C)CCCn1cc(C2=C(c3c[nH]c4ccccc34)C(=O)NC2=O)c2ccccc21: 69.2%
COc1ccc(-c2cnc3c(-c4ccsc4)cnn3c2)cc1: 74.8%
CCOc1cc2ncnc(Nc3cccc(Br)c3)c2cc1OCC: 84.7%
CC(=O)O/N=C1/C(c2c(O)[nH]c3cc(Br)ccc23)=Nc2ccccc21: 82.9%
Cn1cc(/C=C2\C(=O)Nc3ccc(S(N)(=O)=O)cc32)c2ccccc21: 81%
CC(C)c1nn(-c2c(Cl)cccc2Cl)c2nc(Cc3ccc(OCCO)cc3)[nH]c(=O)c12: 91.6%
